Published values of several laboratories.
Lines come from different studies, so protocols differ. Numbers after ± are the reported error.

SMILES	cell line	test	conditions	EC50
CC1(C)CCC(CN2CCN(c3ccc(C(=O)NS(=O)(=O)c4ccc(NCC5CCOCC5)c([N+](=O)[O-])c4)c(Oc4cnc5[nH]ccc5c4)c3)CC2)=C(c2ccc(Cl)cc2)C1	canine normal blood CD3+ T cells	cell killing	24 h	1.99 µM
COc1cc2ccnc3c2c(c1OC)NC=C3	786-0 HRE-luciferase reporter cells	reporter gene, inhibitor	24 h	> 100 µM
Cc1noc(C)c1CC(=O)N1CCOc2c(cc(Br)cc2OCC2CCCN(C)C2)C1 (stereo not shown)	J774.A1 macrophages	cytotoxicity		> 50 µM
C/C=C(/C)C(=O)OCc1nccc2c1C(=O)C(O)=C(C)C2=O	786-0 HRE-luciferase reporter cells	reporter gene, inhibitor	24 h	> 100 µM
C[C@]1(c2nc3c(C(N)=O)cccc3[nH]2)CCCN1	UWB1289 (BRCA1 deficient)	cell growth, inhibitor, CellTiter-Glo	7 days	1.8 µM
COc1cc(-c2nn(CCN3CCC(N(C)C)CC3)c3ncnc(N)c23)ccc1NC(=O)OC(C)(C)C	EPC-2 pre-malignant	cell viability, PrestoBlue	120 h	12.8 µM
Cc1c(O)cccc1C(=O)N[C@@H](CSc1ccccc1)[C@H](O)CN1C[C@H]2CCCC[C@H]2C[C@H]1C(=O)NC(C)(C)C	ΔE-expressing cells	ΔE mislocalization, high-content imaging		3.49 µM
Cc1noc(C)c1CC(=O)N1CCOc2c(cc(-c3ccnn3C)cc2OCC2CCCN(C)C2)C1 (stereo not shown)	J774.A1 macrophages	cytotoxicity		> 50 µM
CNc1ncc2c(/C=C/C(=O)N3CCC(OC)CC3)nn(Cc3cccc(C(F)(F)F)c3)c2n1	EPC-2 pre-malignant	cell viability, PrestoBlue	120 h	0.39 µM
CC(C)c1nc(CN(C)C(=O)N[C@H](C(=O)N[C@@H](Cc2ccccc2)C[C@H](O)[C@H](Cc2ccccc2)NC(=O)OCc2cncs2)C(C)C)cs1	ΔE-expressing cells	ΔE mislocalization, high-content imaging		2.06 µM
O=C(c1cc(Cc2n[nH]c(=O)c3ccccc23)ccc1F)N1CCN(C(=O)C2CC2)CC1	MDA-MB-436 (BRCA1 deficient)	cell growth, inhibitor, CellTiter-Glo	7 days	0.021 µM
CCn1cc(-c2cc(Cn3ccnc3)cc3c2CCN([C@H](c2cc(OC)ccn2)C2CC2)C3=O)c(C(F)(F)F)n1	CAMA-1	cell growth, inhibitor	120 h	6.86 µM
CC(=O)O[C@H]1C(=O)[C@@]2(C)[C@H]([C@H](OC(=O)c3ccccc3)[C@]3(O)C[C@H](OC(=O)[C@H](O)[C@@H](NC(=O)c4ccccc4)c4ccccc4)C(C)=C1C3(C)C)[C@]1(OC(C)=O)CO[C@@H]1C[C@@H]2O	CP-A pre-malignant	cell viability, PrestoBlue	120 h	0.00046 µM
CC(C)CN(C[C@@H](O)[C@H](Cc1ccccc1)NC(=O)O[C@H]1CCOC1)S(=O)(=O)c1ccc(N)cc1	ΔE-expressing cells	ΔE mislocalization, high-content imaging		inactive
C=CC[C@@H]1/C=C(\C)C[C@H](C)C[C@H](OC)[C@H]2O[C@@](O)(C(=O)C(=O)N3CCCC[C@H]3C(=O)O[C@H](/C(C)=C/[C@@H]3CC[C@@H](O)[C@H](OC)C3)[C@H](C)[C@@H](O)CC1=O)[C@H](C)C[C@@H]2OC	Jurkat FKBP12 knockout	NFAT luciferase reporter		0.00947 µM
COc1cnc2cccc(N3CCc4c(cc(Cn5ccnc5C)cc4-c4cn(C)nc4C(F)(F)F)C3=O)c2c1	ZR-75-1	cell growth, inhibitor	120 h	8.1 µM
C[C@]12CCCN1CC1=NNC(=O)c3cc(F)cc4[nH]c2c1c34	LoVo		added: temozolomide	> 3 µM
[Cl-].[Cl-].[Os+2].c1cnc2c(c1)ccc1cccnc12.c1cnc2c(c1)ccc1cccnc12.c1cnc2c(c1)ccc1cccnc12	SK-MEL-28	photocytotoxicity, resazurin	visible light, normoxia	40.3 ± 1.5 µM
FC(F)(F)c1cc(-c2ccnc3[nH]c(C(F)(F)F)nc23)cc(C(F)(F)F)c1	L6 myoblasts	oxygen consumption rate		> 100 µM
CCn1cc(-c2cc(Cn3ccoc3=N)cc3c2CCN([C@@H](C)c2cc(OC)ccn2)C3=O)c(C(F)(F)F)n1	NCI-H1437	cell growth, inhibitor	120 h	> 30 µM
COC(=O)N[C@H](C(=O)N[C@@H](Cc1ccccc1)[C@@H](O)CN(Cc1ccc(-c2ccccn2)cc1)NC(=O)[C@@H](NC(=O)OC)C(C)(C)C)C(C)(C)C	ΔE-expressing cells	ΔE mislocalization, high-content imaging		inactive
Cc1noc(C)c1CC(=O)N1CCOc2c(cc(-c3ccn(C)n3)cc2OCC2CCCN(C)C2)C1 (stereo not shown)	J774.A1 macrophages	cytotoxicity		> 50 µM

Repeated from above:
SMILES	cell line	test	conditions	EC50
Cc1noc(C)c1CC(=O)N1CCOc2c(cc(-c3ccnn3C)cc2OCC2CCCN(C)C2)C1 (stereo not shown)	J774.A1 macrophages	cytotoxicity		> 50 µM
FC(F)(F)c1cc(-c2ccnc3[nH]c(C(F)(F)F)nc23)cc(C(F)(F)F)c1	L6 myoblasts	oxygen consumption rate		> 100 µM
